Experimental data collected from several papers.
Compare with care: the assays were run in different laboratories. “And” joins repeats or separate records; there may be more than shown. ± marks the error that the study gave. In brackets after ≈: the same amount, converted by molar mass.

Substance | test | test system | setting | scale | measurement | result
C=CC(N)CCC(=O)O (stereo not drawn) |  | male Sprague-Dawley rat, plasma | oral, 10 mg/kg, formulation 9, added: low-fat infant formula 1500 mg/kg |  | Cmax | 9090 ± 301 ng/mL
Cc1nc2cccc(OCC(C)(C)C(=O)NC(C)C)c2c(N)c1C(=O)O |  | female Sprague-Dawley rat, plasma | oral food admix, 60 mg/kg/day, day 7, 90-day dietary study |  | AUC(0-24 h) | 566 ng·h/mL
Cc1c2c(n(-c3ccc(Cl)cc3Cl)c1-c1ccc(OS(=O)(=O)CCC(F)(F)F)cc1)CCN(N1CCCCC1)C2=O | LC-MS/MS | cynomolgus monkey 5, plasma | intravenous infusion, 0.6 mg/kg, 90 min, total concentration mid-point of PET |  | plasma concentration | 252 nM
CC(C)[C@H](NC(=O)[C@@H]1CCCN1C(=O)[C@H](CCCNC(=N)N)NC(=O)[C@H](CS)NC(=O)[C@H](Cc1c[nH]c2ccccc12)NC(=O)[C@H](CCCNC(=N)N)NC(=O)[C@@H](Cc1ccccc1)NC(=O)[C@H](Cc1c[nH]cn1)NC(=O)[C@H](CCC(=O)O)NC(=O)[C@H](CS)NC(=O)[C@H](CS)NC(=O)[C@H](CCCCN)NC(=O)[C@@H]1CC(=O)N[C@@H](CCCNC(=N)N)C(=O)N[C@@H]([C@@H](C)O)C(=O)N[C@@H](CC(=O)O)C(=O)N[C@H](Cc2ccc(O)cc2)C(=O)N1)C(N)=O [technetium-99m labelled] |  | C57 mouse, female, B16/F1 melanoma, lung | intravenous, 2 h, added: NDP-MSH 10 µg co-injected |  | tissue uptake | 1.18 ± 0.4 %ID/g
CCCCCCCCc1ccc(CCC(N)(CO)COP(=O)(O)O)cc1 (stereo not drawn) | contraction | rat mesenteric arteries |  | reference: solvent | lowest significant concentration | ≥ 1 nM
C/C=C/C[C@@H](C)C(=O)[C@H]1C(=O)N[C@@H](C(C)C)C(=O)N(C)CC(=O)N(C)[C@@H](CC(C)C)C(=O)N[C@@H](C(C)C)C(=O)N(C)[C@@H](CC(C)C)C(=O)N[C@@H](C)C(=O)N[C@H](C)C(=O)N(C)[C@@H](CC(C)C)C(=O)N(C)[C@@H](CC(C)C)C(=O)N(C)[C@@H](C(C)C)C(=O)N1C |  | Sprague Dawley rat, plasma | intravenous infusion, 0.9 mg/h/kg, 4 h, minimal efficacious dose |  | free steady-state plasma concentration | 245 nM
CC(C)NC[C@@H](C(=O)N1CCN(c2ncnc3c2[C@H](C)C[C@H]3O)CC1)c1ccc(Cl)cc1 |  | human, Mild hepatic function, plasma | oral, 100 mg single dose, NCI classification, geometric mean |  | AUC(0-∞) | 522 ng·h/mL
O=C1N=C(N2CCOCC2)CN1c1ccc(Cl)cc1 |  | female beagle dog, plasma | oral, 30 mg/kg, fasted |  | AUC(0-inf) | 92400 ng·h/mL
O=C(O)/C=C/c1ccc(O)c(O)c1 | UPLC-MS/MS | Wistar rat, microcirculation dysfunction model, plasma | oral, 100 mg/kg Salvia miltiorrhiza stem-leaf extract FS |  | MRT(0-t) | 7.08 ± 0.71 h
Cc1cc(OCC(=O)O)cc(C)c1Cc1ccc(O)c(C(C)C)c1 |  | C57BL/6 mouse, serum | oral, 30.5 µmol/kg, enterohepatic circulation |  | time of secondary peak | ~8 h
CS(=O)(=O)OC[C@H](O)[C@@H]1CO1 |  | Wistar rat, female, red blood cells and plasma | intraperitoneal, 500 mg/kg treosulfan, 1 h |  | RBC/plasma partition coefficient | 0.48 and 0.7
CS(=O)(=O)n1cc2c(n1)CN([C@H]1CO[C@H](c3cc(F)ccc3F)[C@@H](N)C1)C2 |  | human, plasma | oral, single doses |  | alpha-phase half-life | 40 to 50 h
CCCCCCCCCCCCCNCC(=O)N(CC(=O)N(CCCC[N+](C)(C)C)CC(=O)N(CC[N+](C)(C)C)CC(=O)N(CC(N)=O)C1CCCCC1)C1CCCCC1 | preparative RP-HPLC C18 | water to acetonitrile gradient | 0.05% TFA in eluent | higher = more hydrophobic | acetonitrile at elution | 73.3%
CN(C)C(=O)c1cc2cnc(Nc3ccc(N4CCNCC4)cn3)nc2n1C1CCCC1 |  | patients Rb+ solid tumours | oral, 600 mg continuous, treatment-related adverse events |  | QT prolongation all grades | 0%
CN[C@@H]1[C@H](O)[C@H](NC)[C@H]2O[C@]3(O)[C@H](O[C@@H]2[C@H]1O)O[C@H](C)C[C@H]3NC(=O)Cc1cc(Cl)ccn1 | glutathione conjugation | rat liver S9 | 100 µM, 2 h, pH 7.4, added: glutathione 0.2 mM |  | parent remaining | 71.9%
CC(C)=CCC[C@](C)(O[C@@H]1O[C@H](CO)[C@@H](O)[C@H](O)[C@H]1O)[C@H]1CC[C@]2(C)[C@@H]1[C@H](O)C[C@@H]1[C@@]3(C)CC[C@H](O)C(C)(C)[C@@H]3[C@@H](O[C@@H]3O[C@H](CO)[C@@H](O)[C@H](O)[C@H]3O[C@@H]3O[C@@H](C)[C@H](O)[C@@H](O)[C@H]3O)C[C@]12C |  | Sprague Dawley rat, male, plasma | oral, 45 mg/kg, in white ginseng extract |  | AUC(0-inf) | 2900 ± 500 ng·h/mL
CS/C(S)=N/CCCC[S+](C)[O-] (racemic) | RT-PCR, refers to: Cyp1a1 | rat, mammary gland | oral gavage, 200 mg/kg, dosed for four days | reference: vehicle | mRNA fold change | 6.24
CCCOc1ccc([C@H]2CNC(=O)N2c2ccc3[nH]cnc3c2)cc1 |  | non-elderly adults, fasted, plasma | oral, 200 mg twice daily, day 11, oral solution, geometric mean |  | AUC(0-12h) | 1830 ng·h/mL

Substance | test | test system | setting | scale | measurement | result
COc1cc2c3c(n(CCCN4CCOCC4)c(=O)c2cc1OC)-c1cc2c(cc1C3=O)OCO2 |  | patients, plasma | intravenous infusion, 20 mg/m^2 daily over 1 h, cycle 1 day 4 |  | AUC(0-24 h) | 5090 ng·h/mL
CCOC(=O)[C@H](C)C[C@@H](Cc1ccc(-c2ccccc2)cc1)NC(=O)CCC(=O)O |  | male human, plasma | oral, dose not given, day 8, adjusted geometric mean, added: sildenafil |  | AUCtau at steady state | 3590 ng·h/mL
liraglutide | ELISA | human plasma | 10 nM, time not given | reference: target concentration | recovery | 59%
CNC(=O)c1cccc2cc(Oc3ccnc4cc(OCC5(N)CC5)c(OC)cc34)ccc12 |  | human | oral, 10 mg, cycle 1 day 15, multiple dose, intermittent arm, geometric mean |  | Vss/F | 53.6 L
Br.Cc1ccc(Sc2ccccc2N2CCNCC2)c(C)c1 |  | healthy humans, plasma | oral, median, population PK model |  | elimination half-life | 61.3 h
CC[C@H](C)[C@H](N)C(=O)O |  | octanol/phosphate buffer | pH 7.0, N-4-nitrobenzoyl amino acid derivatives | reference: glycine derivative | Π (relative logD) | 1.59 ± 0.08
colistin B methanesulfonate | one-compartment PK model | rat | i.p., 20 mg/kg colistin base activity |  | rate of conversion to colistin | 1.4 ± 0.125 mL/min/kg
O=C1Nc2ccccc2C(=O)CCc2cc(F)ccc21 | nephelometry | aqueous buffer | 30 min, pH 6.5 |  | kinetic solubility | 50 to 100 µg/mL (≈ 186 to 371 µM)
CCCC[C@H](NC(C)=O)C(=O)N[C@H]1CCC(=O)NC[C@@H](C(=O)N[C@@H](Cc2c[nH]c3ccccc23)C(N)=O)NC(=O)[C@H](CCCNC(=N)N)NC(=O)[C@@H](Cc2ccccc2)NC(=O)[C@H](Cc2c[nH]cn2)NC1=O |  | healthy volunteers, both sexes, plasma | subcutaneous, 3.0 mg single dose |  | Cmax, geometric mean | 53.5 ng/mL
CCc1oc2ccc(OC)cc2c1C(=O)c1cc(Br)c(O)c(Br)c1 |  | Sprague-Dawley rat, liver microsomes | 1.0 µM, pH 7.4, 37 °C, added: NADPH 1.0 mM |  | intrinsic clearance | 9.5 ± 2.8 µL/min/mg
CC#CCn1c(N2CCC[C@@H](N)C2)nc2c1c(=O)n(Cc1nc(C)c3ccccc3n1)c(=O)n2C |  | male ICR mouse, liver | oral, 3 mg/kg, 24 h |  | AUC | 19700 ng·h/mL
C=CC(=C)CCC1(C)C(C)CC(O)C23C(=CC(OC(=O)C(C)CC)CC12)C(OC(C)=O)OC3OC(C)=O (stereo not drawn) | haemolysis |  | 20 µM |  | haemolysis | 2.2%
Cn1ncnc1[C@H]1c2n[nH]c(=O)c3cc(F)cc(c23)N[C@@H]1c1ccc(F)cc1 |  | mouse plasma | 80 ng/mL, three freeze-thaw cycles |  | freeze-thaw stability deviation | -1.96%
CC1(C)C2CC[C@@]1(C)C(=O)/C2=C/c1cc2ccccc2o1 |  | human red blood cells | 10 to 300 µg/mL, 30 min |  | maximum hemolysis | < 14%
CCOc1c([C@H](C)n2nc(C)c3c(N)ncnc32)cc(Cl)c(F)c1[C@@H]1CNC(=O)C1 |  | healthy fasted humans, plasma | oral, 10 mg |  | AUC(0-t) geometric mean | 7.27 µM·h
Cn1c(-c2ccc(C(N)=O)cc2F)nnc1C(C)(C)Oc1c(F)cc(Cl)cc1F |  | healthy young Japanese subjects, plasma | oral, 20 mg once daily, day 18, 14 days dosing |  | half-life mean | 30 h
CCC(CC)COC(=O)[C@H](C)N[P@](=O)(OC[C@H]1O[C@@](C#N)(c2ccc3c(N)ncnn23)[C@H](O)[C@@H]1O)Oc1ccccc1 |  | 20% w/w aqueous SBECD | 24 h, pH 1.9, 25 °C, SBECD source 4 |  | equilibrium solubility | 7620 µg/mL
C[C@]12CC[C@@H]3c4ccc(O)cc4CC[C@H]3[C@@H]1C[C@@H](O)[C@@H]2O | GC-MS | breast cancer women on NSAI, serum | vaginal, 0.03 mg daily, 24 h, day 28 |  | median serum concentration | 0 ng/mL

For quick reference, copied from above:
Substance | test | test system | setting | scale | measurement | result
CCc1oc2ccc(OC)cc2c1C(=O)c1cc(Br)c(O)c(Br)c1 |  | Sprague-Dawley rat, liver microsomes | 1.0 µM, pH 7.4, 37 °C, added: NADPH 1.0 mM |  | intrinsic clearance | 9.5 ± 2.8 µL/min/mg
CC#CCn1c(N2CCC[C@@H](N)C2)nc2c1c(=O)n(Cc1nc(C)c3ccccc3n1)c(=O)n2C |  | male ICR mouse, liver | oral, 3 mg/kg, 24 h |  | AUC | 19700 ng·h/mL
C=CC(=C)CCC1(C)C(C)CC(O)C23C(=CC(OC(=O)C(C)CC)CC12)C(OC(C)=O)OC3OC(C)=O (stereo not drawn) | haemolysis |  | 20 µM |  | haemolysis | 2.2%
